Measured values pooled from the literature.
Lines come from different studies, so protocols differ. ± gives the spread as reported.

COc1cc(CNC(=O)C[C@H](C)CCC=C(C)C)ccc1OCc1cn(-c2ccccc2[N+](=O)[O-])nn1
growth percent (ACHN; SRB; 10 µM, 48 h): 80.8%

CC[C@H]1[C@@H](O)[C@@H]2[C@H](CC[C@]3(C)[C@@H]([C@H](C)CCOS(=O)(=O)[O-])CC[C@@H]23)[C@@]2(C)CC[C@@H](O)C[C@@H]12.[Na+]
steatosis area (digital image analysis; ob/ob NASH mouse model, liver; oral, 3 mg/kg once daily, 8 weeks; reference: area): 40.6 ± 1.6%

C=C(C)[C@@H]1CC[C@]2(C(=O)OCO/N=[N+](\[O-])N3CCCC3)CC[C@]3(C)[C@H](CC[C@@H]4[C@@]5(C)CC[C@H](OC(C)=O)C(C)(C)[C@@H]5CC[C@]43C)[C@@H]12
late apoptotic cells (B16-F10; Annexin V/PI flow cytometry; 0.25 µM, 36 h): 5.1%

CSc1ccc(/C=C2/C(C)=C(CC(=O)NCCN(C)C)c3cc(F)ccc32)cc1
EC50 (BJ; cytotoxicity): > 7.57 µM

CC(C)Cc1ccc(C(C)C(=O)NN=Cc2ccc(OCC(=O)NN=Cc3cccc([N+](=O)[O-])c3)cc2)cc1 (centres unmarked)
viability (U87 MG; MTT; 40 µM, 48 h): 75.8%

CC[C@H](C(=O)N1CCCC[C@H]1C(=O)O[C@H](CCc1ccc(OC)c(OC)c1)c1cccc(OCC(=O)NCCOCCOCCN(C)C/C=C/C(=O)Nc2cc3c(Nc4ccc(F)c(Cl)c4)ncnc3cc2OC)c1)c1cc(OC)c(OC)c(OC)c1
decrease in viability (NCI-H1975 expressing FKBP12F36V-PTPN2; CellTiter-Glo; concentration not given, 6 days): 99.6%

[Cl-].[Cl-].[Ru+2].c1ccc(-c2ccnc3c2ccc2c(-c4ccccc4)ccnc23)cc1.c1cnc2c(c1)ccc1cccnc12.c1cnc2c(c1)ccc1cccnc12
lowest concentration inhibiting OCR (A549; oxygen consumption rate, Seahorse extracellular flux; 1 h, with: indigo light 450 nm, 29.1 J/cm2): 1 µM

Cc1cc(Nc2ccc(NC(=O)c3ccc(NC(=O)c4ccncc4)cc3)cc2)nc(N)n1
reporter reactivation (KG-1 with methylated CMV-luciferase; luciferase reporter gene; 5 µM, 24 h; reference: untreated): 1 ± 0.1 fold

CC(C)C(=O)Cc1c(OCC(O)C(C)(C)O)ccc2ccc(=O)oc12 (centres unmarked)
combination index (COLO 320 (ABCB1-overexpressing, multidrug-resistant); cell growth; 200 µM starting, CI at ED50, with: doxorubicin, ratio 92.8:1): 0.82

Cc1ccc(C(C)C)cc1.N=C(N)Nc1nc2ccccc2s1.[Cl-].[Cl][Ru+]
selectivity ratio (BPH-1 and PC-3; MTT; 24 h; reference: IC50 BPH-1 over PC-3): 1.4

CC1(C)OC(=O)C[C@H](O)[C@]2(C)[C@H]3CC[C@@]4(C)[C@H](c5ccoc5)OC(=O)[C@H]5O[C@]54[C@]3(C)C(=O)C[C@@H]12
combination index (COLO 320 (ABCB1-overexpressing, multidrug-resistant); cell growth; 200 µM starting, CI at ED50, with: doxorubicin, ratio 46.4:1): 1.02

COc1cc(CN2CCN(c3ccc(Cl)cc3)CC2)c2cc3[n+](cc2c1O)CCc1cc2c(cc1-3)OCO2
therapeutic index (HeLa and MDCK; SRB; 48 h; reference: CC50 MDCK over IC50 HeLa): 45.8

C=CC(=O)Nc1cccc(Cn2ncc3cnc(Nc4cnn(CCOC)c4)nc32)c1
STAT phosphorylation (human PBMC or CD34+ cells; Western blot; concentration not given, with: non-JAK3 cytokines): no inhibition

COc1cc(CNC(=O)C[C@H](C)CCC=C(C)C)ccc1OCc1cn(-c2ccc([N+](=O)[O-])cc2)nn1
growth (LOX IMVI; SRB; 10 µM, 48 h): 62.7%

COc1ccc([C@@H]2CC(=O)c3c(O)cc(O[C@@H]4O[C@H](CO[C@@H]5O[C@@H](C)[C@H](O)[C@@H](O)[C@H]5O)[C@@H](O[C@H]5O[C@H](CO)[C@@H](O)[C@H](O)[C@H]5O)[C@H](O)[C@H]4O)cc3O2)cc1O
cell count (MRC5; trypan blue exclusion; 50 µg/mL, 72 h): 16200 ± 602

Nc1nc2cc(CC[C@H]3C[C@@H](n4ccc5c(N)ncnc54)[C@H](O)[C@@H]3O)ccc2cc1Br
inhibition (NCI-H1048; SmD1/3 dimethylation, measured: SmD1/3-Me2; 1 nM, 48 h): > 50%

CCC[C@H]1CC[C@H](c2ccc(NC(=S)NC[C@@H]3[C@@H](O)[C@@H](O)[C@H]4[C@H](O)CCCN43)cc2)CC1
cell invasion (Huh-7; Transwell; concentration not given): decreased

CC(C)=CCc1c(OCC2OC2(C)C)ccc2ccc(=O)oc12 (centres unmarked)
combination index (COLO 320 (ABCB1-overexpressing, multidrug-resistant); cell growth; 150 µM starting, CI at ED50, with: doxorubicin, ratio 17.42:1): 1.17

COc1cc(CNC(=O)C[C@H](C)CCC=C(C)C)ccc1OCc1cn(-c2ccc(Br)cc2)nn1
growth percent (DU-145; SRB; 10 µM, 48 h): 92.7%

CCCC[C@H](NC(=O)[C@H](Cc1ccccc1)NC(=O)[C@H](Cc1c[nH]cn1)NC(=O)CCNC(=O)[C@@H](NC(=O)[C@H](C)NC(=O)[C@H](Cc1c[nH]c2ccccc12)NC(=O)[C@H](CCC(N)=O)NC(=O)[C@H](N)Cc1ccc(O)cc1)C(C)C)C(N)=O
phosphorylation fold increase (NCI-H1299 transfected with NMB receptor; Western blot, measured: EGFR tyrosine phosphorylation; 100 nM; reference: untreated): 10.2 fold

COc1cc(CNC(=O)C[C@H](C)CCC=C(C)C)ccc1OCc1cn(-c2ccc(Cl)cc2Cl)nn1
growth percent (EKVX; SRB; 10 µM, 48 h): 81.1%

COc1cccc(/C=N/NC(=O)COc2ccc(/C=N/NC(=O)C(C)c3ccc(CC(C)C)cc3)cc2)c1O (centres unmarked)
viability (U87 MG; MTT; 10 µM, 48 h): 56%

COc1cc2c(C=C3C(=O)Nc4ccccc43)c[nH]c2cc1C
TGI (colon cancer subpanel of NCI-60; 48 h): 3.98 µM

Clc1ccc(NN=C(c2ccccc2)c2ccccn2)nc1
H3K9me3 demethylase activity (NCI-H358; cell lysate; 0.1 to 2 µM; reference: untreated): decreased

CN1CCN(C(=O)N(CCCCCCC(=O)NO)c2ccc(-c3ccc4cnn(C)c4c3)cc2)CC1
sub-G1 cells (MM1.S and RPMI-8226; propidium iodide flow cytometry; concentration not given, 24 h): increased

O=Cc1c(O)ccc2ccccc12
log2 fold change (HUVEC; RNA sequencing, measured: CCL2; 75 µM, 24 h; reference: DMSO): -2.99

[Cl-].[Cl-].[Ru+2].c1ccc2nc(-c3ccc4ccccc4n3)ccc2c1.c1cnc2c(c1)ccc1cccnc12.c1cnc2c(c1)ccc1cccnc12
lowest concentration inhibiting OCR (A549; oxygen consumption rate, Seahorse extracellular flux; 1 h, with: indigo light 450 nm, 29.1 J/cm2): 10 µM

Cc1c2ccnc(C(=O)N[C@H](C)CN(C)C)c2cc2c3cc(OCCCN4CCN(C)CC4)ccc3n(C)c12
C9ORF72 protein level (C9orf72 ALS patient-derived iPSCs; western blot; 5, 50, 500 nM): no effect

COc1cc(C(=O)N2CC[C@@H](O)[C@@H](N)C2)cc2nc(-c3cc4cccnc4n3CC3CC3)n(C)c12
inhibition (human neutrophils; protein citrullination; concentration not given, with: ionomycin 5 µM): 39%

Cc1ccc(C(=O)N(Cc2ccc(C(F)(F)F)cc2)C2CC2)c(O)c1O
cell migration (DLD-1; wound healing; 20 µM, 24 and 48 h): decreased

COc1cc(CNC(=O)C[C@H](C)CCC=C(C)C)ccc1OCc1cn(-c2ccc(Cl)c(Cl)c2)nn1
growth percent (T47D breast cancer cells; SRB; 10 µM, 48 h): 33.6%

CC(C)Cc1ccc(C(C)C(=O)N/N=C/c2ccc(OCC(=O)N/N=C/c3ccc([N+](=O)[O-])cc3)cc2)cc1 (centres unmarked)
viability (U87 MG; MTT; 150 µM, 48 h): 61.8%

COc1cc(CNC(=O)C[C@H](C)CCC=C(C)C)ccc1OCc1cn(-c2ccccc2Cl)nn1
growth percent (Hs-578T breast cancer cells; SRB; 10 µM, 48 h): 81%

CCOC(=O)c1csc2nc(-c3cccc(NC(=O)c4cc5cc(NC(=O)C(C)Cl)ccc5n4Cc4ccc(C(F)(F)F)cc4)c3)cn12 (centres unmarked)
intracellular ROS level (RAW264.7; 10 µM, with: LPS; reference: control): increased

O=C1OCC2=C1C(c1cccc(Br)c1)C1=C(N2)C(=O)c2ccccc2C1=O (centres unmarked)
late apoptotic cells (SK-LU-1 cells; annexin V/PI; 0.16 µM, 24 h): 3.39%

COc1cc(CNC(=O)C[C@H](C)CCC=C(C)C)ccc1OCc1cn(-c2ccc(C#N)cc2)nn1
growth percent (T47D breast cancer cells; SRB; 10 µM, 48 h): 36%

COC(=O)[C@H](CSSC(C)(C)[C@H](NC(=O)[C@H](CCC(=O)NC[C@H](O)[C@@H](O)[C@H](O)[C@H](O)CO)NC(=O)[C@H](CCC(=O)O)NC(=O)[C@H](CCC(=O)NC[C@H](O)[C@@H](O)[C@H](O)[C@H](O)CO)NC(=O)[C@H](CCC(=O)O)NC(=O)[C@H](CCC(=O)NC[C@H](O)[C@@H](O)[C@H](O)[C@H](O)CO)NC(=O)CC[C@H](NC(=O)c1ccc(NCc2cnc3nc(N)[nH]c(=O)c3n2)cc1)C(=O)O)C(=O)O)NC(=O)CC[C@H](NC(=O)c1ccc(NCc2cnc3nc(N)nc(N)c3n2)cc1)C(=O)O
cytokine release modulation (THP-1 FRβ, CD19-CAR T, NALM-6 triple co-culture; 10 µM, with: folic acid, 100-fold excess): inhibited

COc1ccc(CN(C(=O)c2sc3ccccc3c2Cl)C2CCC(N)CC2)cc1-c1ccc(C#N)cc1 (centres unmarked)
cell proliferation (rat cerebellar granule neuron precursors; [3H]-thymidine incorporation; 5 µM; reference: Hh protein 50 nM): ~50%

COc1cccc(/C=N\NC(=O)[C@]2(C)C3CC[C@]4(C)C(C(=O)C=C5C6[C@@H](C)[C@H](C)CC[C@]6(C)CC[C@]54C)[C@@]3(C)CC[C@H]2OC(C)=O)c1 (some centres unmarked)
inhibition (RAW264.7; NO release, inhibitor, Griess; 10 µM, 24 h, LPS-stimulated): 64.6%

O=[N+]([O-])c1c(Nc2cc(F)cc(Cl)c2)ccc2nonc12
mRNA level (Hep3B; measured: HIF1A; 1 or 10 µM): no effect

Cc1ccc(CN2C(=O)/C(=N\c3ccc(Cl)cc3Br)c3ccccc32)cc1
inhibition (B16; cell growth or viability; 0.4 µM): 60.8%

CC(=O)OC[C@H]1O[C@@H](Sc2sc(C(=O)c3ccc(Br)cc3)c(N)c2-c2nc3ccccc3s2)[C@H](OC(C)=O)[C@@H](OC(C)=O)[C@H]1OC(C)=O
growth (LOX IMVI; SRB; 10 µM, 48 h): 96.8%

CCC12CCc3c(c4ccccc4n3C)CCN(CC3OC31)C2 (centres unmarked)
p38 phosphorylation (BV-2; western blot; 25 µM, with: LPS; reference: LPS alone): ~55%

C=CC(=O)N1C[C@H](C)N(c2nc(OC[C@@]34CCCN3C[C@H](F)C4)nc3c(F)c(-c4ccc(F)c5sc(N)c(C#N)c45)c(C(F)(F)F)cc23)C[C@H]1C
kinact/KI (NCI-H358 (KRAS G12C); HTRF, measured: pERK): 43000 M⁻¹ s⁻¹

O=c1[nH]c(N2CCC3(CC2)CN(CCO)c2cc(F)cc(F)c23)nc2c1CCCC2
DNA synthesis (COLO 320DM; BrdU incorporation; concentration not given, 48 h): decreased

COc1cc(CNC(=O)C[C@H](C)CCC=C(C)C)ccc1OCc1cn(-c2ccccc2)nn1
growth percent (T47D breast cancer cells; SRB; 10 µM, 48 h): 66%

COc1cc2c(OC3OCC(OC)C(OC)C3OC(=O)c3ccc(Br)cc3)c3c(c(-c4ccc5c(c4)OCO5)c2cc1OC)C(=O)OC3 (centres unmarked)
mRNA level (CAL-27; qRT-PCR, measured: CTSD; 0.1, 1, 2 µM, 36 h, with: bafilomycin A1 0.1 µM; reference: DMSO): decreased

c1cc(-c2nc3ccc(N4CCOCC4)cc3[nH]2)cc(N2CCc3ccccc3C2)c1
EC50 (HT-22; protection from ferroptosis, CCK-8 viability; 24 h, with: 1 µM erastin): 1.7 µM

CC(=O)OC[C@H]1O[C@@H](Sc2sc(C(=O)c3ccc(C)cc3)c(N)c2-c2nc3ccccc3s2)[C@H](OC(C)=O)[C@@H](OC(C)=O)[C@@H]1OC(C)=O
growth (EKVX; SRB; 10 µM, 48 h; reference: untreated): 75%

O=C1NC(=O)C(=Cc2ccc(-c3cccc(C(F)(F)F)c3)o2)S1
IFN-γ level (PBMC; ELISA; 10 µM, 288 h): 146%

Some of these lines once more:
Nc1nc2cc(CC[C@H]3C[C@@H](n4ccc5c(N)ncnc54)[C@H](O)[C@@H]3O)ccc2cc1Br
inhibition (NCI-H1048; SmD1/3 dimethylation, measured: SmD1/3-Me2; 1 nM, 48 h): > 50%

[Cl-].[Cl-].[Ru+2].c1ccc2nc(-c3ccc4ccccc4n3)ccc2c1.c1cnc2c(c1)ccc1cccnc12.c1cnc2c(c1)ccc1cccnc12
lowest concentration inhibiting OCR (A549; oxygen consumption rate, Seahorse extracellular flux; 1 h, with: indigo light 450 nm, 29.1 J/cm2): 10 µM

COc1cc(CNC(=O)C[C@H](C)CCC=C(C)C)ccc1OCc1cn(-c2ccc([N+](=O)[O-])cc2)nn1
growth (LOX IMVI; SRB; 10 µM, 48 h): 62.7%

CC(C)C(=O)Cc1c(OCC(O)C(C)(C)O)ccc2ccc(=O)oc12 (centres unmarked)
combination index (COLO 320 (ABCB1-overexpressing, multidrug-resistant); cell growth; 200 µM starting, CI at ED50, with: doxorubicin, ratio 92.8:1): 0.82

CC(C)=CCc1c(OCC2OC2(C)C)ccc2ccc(=O)oc12 (centres unmarked)
combination index (COLO 320 (ABCB1-overexpressing, multidrug-resistant); cell growth; 150 µM starting, CI at ED50, with: doxorubicin, ratio 17.42:1): 1.17

Cc1ccc(C(=O)N(Cc2ccc(C(F)(F)F)cc2)C2CC2)c(O)c1O
cell migration (DLD-1; wound healing; 20 µM, 24 and 48 h): decreased

CC1(C)OC(=O)C[C@H](O)[C@]2(C)[C@H]3CC[C@@]4(C)[C@H](c5ccoc5)OC(=O)[C@H]5O[C@]54[C@]3(C)C(=O)C[C@@H]12
combination index (COLO 320 (ABCB1-overexpressing, multidrug-resistant); cell growth; 200 µM starting, CI at ED50, with: doxorubicin, ratio 46.4:1): 1.02
